Measurements gathered from unrelated publications.
Compare with care: the assays were run in different laboratories. Values joined by “and” are separate records of one study, mostly repeats; a detail may differ. Numbers after ± are the reported error.
Target: PA-I galactophilic lectin (lecA, Pseudomonas aeruginosa, UniProt Q05097)
Read-out: binding
One construct used (Q05097 1-122): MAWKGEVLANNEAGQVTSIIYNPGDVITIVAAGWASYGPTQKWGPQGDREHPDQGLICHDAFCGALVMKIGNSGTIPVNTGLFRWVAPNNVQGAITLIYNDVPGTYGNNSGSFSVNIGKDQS

Compound = OC[C@H]1O[C@@H](OCc2cn([C@@H]3O[C@H](CO)[C@@H](n4cc(-c5ccc(-c6cn([C@H]7[C@H](O)[C@@H](O)[C@H](n8cc(CO[C@@H]9O[C@H](CO)[C@H](O)[C@H](O)[C@H]9O)nn8)O[C@@H]7CO)nn6)cc5)nn4)[C@H](O)[C@H]3O)nn2)[C@H](O)[C@@H](O)[C@H]1O; test = ITC; setting = pH 7.5; Kd = 12 nM and 12 to 13 nM
Compound = CC(C)C[C@H](NC(=O)[C@@H]1CCCN1C(=O)[C@H](CCCCN)NC(=O)c1ccc(O[C@@H]2O[C@H](CO)[C@H](O)[C@H](O)[C@H]2O)cc1)C(N)=O; test = ITC; setting = pH 7.5; Kd = 3000 nM
Compound = OC[C@H]1O[C@@H](OCc2cn([C@H]3[C@H](O)[C@@H](O)[C@H](c4cn([C@H]5[C@H](O)[C@@H](O)[C@H](n6cc([C@@H]7O[C@H](C[n+]8ccccc8)[C@@H](n8cc(CO[C@@H]9O[C@H](CO)[C@H](O)[C@H](O)[C@H]9O)nn8)[C@H](O)[C@H]7O)nn6)O[C@@H]5CO)nn4)O[C@@H]3C[n+]3ccccc3)nn2)[C@H](O)[C@@H](O)[C@H]1O; test = ITC; Kd = 89 nM
Compound = OC[C@H]1O[C@@H](OCc2cn([C@@H]3O[C@H](CO)[C@@H](n4cc(-c5ccc(-c6cn([C@H]7[C@H](O)[C@@H](O)[C@H](n8cc(CO[C@@H]9O[C@H](CO)[C@H](O)[C@H](O)[C@H]9O)nn8)O[C@@H]7CO)nn6)cc5)nn4)[C@H](O)[C@H]3O)nn2)[C@H](O)[C@@H](O)[C@H]1O; test = cyclic voltammetry sensor; Kd = 13 ± 5 nM
Compound = O=C(COCCCCc1ccccc1)N[C@@H](Cc1cn(CCNC(=O)c2ccc(S[C@@H]3O[C@H](CO)[C@H](O)[C@H](O)[C@H]3O)cc2)nn1)C(=O)NCCO; test = ITC; Kd = 6700 nM
Compound = C#Cc1ccc(O[C@@H]2O[C@H](CO)[C@H](O)[C@H](O)[C@H]2O)cc1; test = ITC; setting = pH 7.5; Kd = 8400 nM
Compound = OC[C@H]1OC(O)[C@H](O)[C@@H](O)[C@H]1O (some centres unmarked); test = cyclic voltammetry sensor; Kd = 67000 ± 26000 nM
Compound = [N-]=[N+]=NCCNC(=O)c1ccc(S[C@@H]2O[C@H](CO)[C@H](O)[C@H](O)[C@H]2O)cc1; test = ITC; Kd = 4800 nM
Compound = COCCOCCOc1cc(-c2cn([C@H]3[C@H](O)[C@@H](O)[C@H](n4cc(-c5ccc(O[C@@H]6O[C@H](CO)[C@H](O)[C@H](O)[C@H]6O)cc5)nn4)O[C@@H]3CO)nn2)c(OCCOCCOC)cc1-c1cn([C@H]2[C@H](O)[C@@H](O)[C@H](n3cc(-c4ccc(O[C@@H]5O[C@H](CO)[C@H](O)[C@H](O)[C@H]5O)cc4)nn3)O[C@@H]2CO)nn1; test = ITC; Kd = 61 nM
Compound = O=C(O)[C@H]1O[C@@H](c2cn([C@H]3[C@H](O)[C@@H](O)[C@H](n4cc([C@@H]5O[C@H](C(=O)O)[C@@H](n6cc(CO[C@@H]7O[C@H](CO)[C@H](O)[C@H](O)[C@H]7O)nn6)[C@H](O)[C@H]5O)nn4)O[C@@H]3CO)nn2)[C@H](O)[C@@H](O)[C@@H]1n1cc(CO[C@@H]2O[C@H](CO)[C@H](O)[C@H](O)[C@H]2O)nn1; test = ITC; Kd = 68 nM
Compound = O=C(COCCCc1ccccc1)N[C@@H](Cc1cn(CCNC(=O)c2ccc(S[C@@H]3O[C@H](CO)[C@H](O)[C@H](O)[C@H]3O)cc2)nn1)C(=O)NCCO; test = ITC; Kd = 8600 nM

Excerpt of the above:
Compound = O=C(O)[C@H]1O[C@@H](c2cn([C@H]3[C@H](O)[C@@H](O)[C@H](n4cc([C@@H]5O[C@H](C(=O)O)[C@@H](n6cc(CO[C@@H]7O[C@H](CO)[C@H](O)[C@H](O)[C@H]7O)nn6)[C@H](O)[C@H]5O)nn4)O[C@@H]3CO)nn2)[C@H](O)[C@@H](O)[C@@H]1n1cc(CO[C@@H]2O[C@H](CO)[C@H](O)[C@H](O)[C@H]2O)nn1; test = ITC; Kd = 68 nM
Compound = [N-]=[N+]=NCCNC(=O)c1ccc(S[C@@H]2O[C@H](CO)[C@H](O)[C@H](O)[C@H]2O)cc1; test = ITC; Kd = 4800 nM
